Measured values collected from several papers.
± gives the spread as reported.
EPHX2: Bifunctional epoxide hydrolase 2 (EPHX2, Homo sapiens, UniProt P34913)
NOD2: Nucleotide-binding oligomerization domain-containing protein 2 (NOD2, Homo sapiens, UniProt Q9HC29)
CES2: Cocaine esterase (CES2, Homo sapiens, UniProt O00748)
Nr3c1: Glucocorticoid receptor (Nr3c1, Rattus norvegicus, UniProt P06536)

SMILES	target	assay	system	setting	scale	endpoint	result
CC1=C(/C=C/C(C)=C/C=C/C(C)=C/C=O)C(C)(C)CCC1	Cyclic nucleotide-gated channel alpha-1 (CNGA1, Bos taurus, UniProt Q00194)	ion current, inhibitor, inside-out patch clamp		400 nM, together with: cGMP 2 mM		fast time constant of inhibition	119 s
C=CC(=O)N1C[C@H](C)N(c2nc(OC[C@@]34CCCN3C[C@H](F)C4)nc3c(F)c(-c4ccc(F)c5sc(N)c(C#N)c45)c(C(F)(F)F)cc23)C[C@H]1C	GTPase KRas, GDP-bound (KRAS, Homo sapiens, UniProt P01116, C118S/G12C)	MALDI-TOF MS		15 min, GDP-loaded		covalent modification	100%
CC(C)CN(CC(C)C)C(=O)/C=C/C=C/c1ccc2c(c1)OCO2	Gabrb1/Gabra1 (Rattus norvegicus, UniProt P15431+P62813)	positive modulator, two-electrode voltage clamp	Xenopus oocytes	α1β1 receptors	relative to: compound over piperine	maximal GABA current enhancement ratio	6.5 fold
CCC(C)C(=O)N1CCN(C(=O)c2ccc(NC(=O)NC34CC5CC(C)(CC(C)(C5)C3)C4)cc2)CC1 (centres unmarked)	EPHX2					lipophilic ligand efficiency	5.53
CC[C@H](C)[C@@H]1NC(=O)[C@H](Cc2ccccc2)NC(=O)[C@H](CCC(=O)O)NC(=O)[C@H](CCCNC(=N)N)NC(=O)CNC(=O)[C@@H](NC(=O)[C@H](CC(C)C)NC(=O)[C@H](CCCNC(=N)N)NC(=O)[C@@H](NC(=O)CNC(=O)[C@H](Cc2ccc(O)cc2)NC(=O)[C@@H]2CCCN2C(=O)[C@H](C)NC(=O)[C@H](C)NC(=O)[C@@H](N)CCCNC(=N)N)C(C)C)CSSC[C@@H]2NC(=O)[C@@H](NC(=O)[C@H](CO)NC(=O)[C@H](CO)NC(=O)[C@H](CO)NC(=O)[C@H](CC(C)C)NC(=O)CNC(=O)[C@H](C)NC(=O)[C@H](CC(C)C)NC(=O)[C@@H](NC(=O)[C@@H](N)CC(=O)O)C(C)C)CSSC[C@H](NC(=O)CNC(=O)[C@H](Cc3c[nH]c4ccccc34)NC(=O)[C@H](CCCCN)NC2=O)C(=O)N[C@@H](CO)C(=O)N[C@@H](CCCCN)C(=O)N[C@@H](CO)C(=O)N[C@@H](CCC(=O)O)C(=O)N[C@@H]([C@@H](C)CC)C(=O)N[C@@H](CO)C(=O)N[C@@H](CO)C(=O)N[C@@H](CC(C)C)C(=O)N[C@H](C(=O)O)CSSC[C@@H](C(=O)NCC(=O)NCC(=O)N[C@@H](CO)C(=O)N[C@@H](CCCNC(=N)N)C(=O)N[C@@H](Cc2c[nH]c3ccccc23)C(=O)O)NC(=O)[C@H]([C@@H](C)O)NC(=O)[C@H](Cc2ccccc2)NC(=O)[C@H]([C@@H](C)CC)NC(=O)[C@H](C(C)C)NC(=O)[C@H](C)NC(=O)[C@H](CCCNC(=N)N)NC1=O	Relaxin-3 receptor 2 (RXFP4, Homo sapiens, UniProt Q8TDU9, L190A)	cAMP response, agonist		concentration not given, L190A mutant	relative to: wild type	potency reduction	14 fold
CCCC(=O)NC1CCN(C(=O)c2ccc(NC(=O)NC34CC5CC(C)(CC(C)(C5)C3)C4)cc2)CC1	EPHX2					lipophilic ligand efficiency	6.04
FC(F)(F)c1ccccc1/N=c1\oc2ccccc2cc1-c1ccccc1	Prostaglandin G/H synthase 1 (PTGS1, Ovis aries, UniProt P05979)	enzyme activity, inhibitor		from IC50, T 300 K		binding free energy	-11.2 kcal/mol
CC(=O)[C@]12NC(C)(C)C[C@@]1(C)C(=O)C1=C2c2c(c3c4n2C(C)(C)CC2=C4[C@@]4(CC(C)(C)N[C@@](C)(C4)C2=O)CC3(C)C)C(=O)C(C)(C)N1 (racemic)	Delta-type opioid receptor (OPRD1, Homo sapiens, UniProt P41143)	agonist, cAMP	CHO	concentration not given		agonist activity	inactive
CC[C@H](C)[C@H](N)C(=O)N[C@@H](CC(N)=O)C(=O)N1CCC[C@H]1C(=O)N[C@H](C(=O)NCC(=O)N[C@@H](CS)C(=O)N[C@@H](C)C(=O)N[C@@H](CCCNC(=N)N)C(=O)N[C@@H](CO)C(=O)N[C@@H](CCC(=O)O)C(=O)N1CCC[C@H]1C(=O)N[C@@H](CCCCN)C(=O)N[C@H](C(=O)N[C@@H](CC(C)C)C(N)=O)[C@@H](C)CC)[C@@H](C)O	WD repeat-containing protein 5 (WDR5, Homo sapiens, UniProt P61964)	binding, BLI				koff	0.0077 s⁻¹
N=C(N)NCCC[C@H](NC(=O)[C@H](CC(=O)O)NC(=O)[C@@H]1CSCCCC(=O)NCC(=O)N[C@@H](Cc2c[nH]cn2)C(=O)N[C@H](Cc2ccccc2)C(=O)N[C@@H](CCCNC(=N)N)C(=O)N[C@H](Cc2c[nH]c3ccccc23)C(=O)N1)C(=O)N[C@@H](Cc1ccccc1)C(=O)NCC(N)=O	Melanocortin receptor 5 (MC5R, Homo sapiens, UniProt P33032)	cAMP accumulation, agonist	HEK293 expressing MC5R	10 µM	relative to: MT-II	activation	65%
CNc1ccccc1C(=O)O[C@H]1C[C@H](n2cnc3c(N)ncnc32)O[C@@H]1COP(=O)(O)OP(=O)(O)O	Unconventional myosin-Va (Gallus gallus, UniProt Q02440, D297C/G292C/I296C/S293C/V295G)	stopped-flow FRET, linear fit intercept		10 °C, together with: MgCl2 10 mM		dissociation rate constant	1.76 ± 0.3 s⁻¹
O=C(/C=C/c1ccc(Cl)cc1)N1CCC2(CC1)CN(Cc1ccc(Cl)c(Cl)c1)C(=O)O2	G-protein coupled receptor 183 (GPR183, Homo sapiens, UniProt P32249)	GTPγS binding, antagonist	CHO membranes expressing EBI2			Schild slope	1.4
CC(=O)N[C@@H](Cc1c[nH]c2ccccc12)C(=O)N[C@@H](Cc1c[nH]c2ccccc12)C(=O)N[C@@H](Cc1c[nH]c2ccccc12)C(=O)N[C@@H](Cc1c[nH]c2ccccc12)C(=O)N[C@@H](Cc1c[nH]c2ccccc12)C(=O)N[C@@H](Cc1c[nH]c2ccccc12)C(=O)N[C@@H](Cc1c[nH]c2ccccc12)C(=O)NCCCC[C@@H]1NC(=O)[C@H](CCCNC(=N)N)NC(=O)[C@H](CCCNC(=N)N)NC(=O)[C@H](CCCNC(=N)N)NC(=O)[C@H](CCCNC(=N)N)NC(=O)[C@H](CCCNC(=N)N)NC1=O	Mast/stem cell growth factor receptor Kit (KIT, Homo sapiens, UniProt P10721)	enzyme activity, inhibitor		5 µM		remaining activity	88%
Cn1sc(=O)n(Cc2ccccc2)c1=O	Bacteroides Pif1 helicase	helicase unwinding activity				inhibitory concentration	15.6 µM
CC1(C)CCN(Cc2ccc(C(=O)NC[C@]3(O)CCCN(c4cc(NCc5ccccc5)ncn4)C3)c(O)c2)CC1	Histone-lysine N-methyltransferase PRDM9 (PRDM9, Homo sapiens, UniProt Q9NQV7)	enzyme activity		10 µM, together with: 1 µM SAM		remaining activity	101%
C=C1CN(S(=O)(=O)c2ccc(C)cc2)CCCN(Cc2ccccc2)CCCN(S(=O)(=O)c2ccc(C)cc2)C1	DnaJ homolog subfamily C member 3 (DNAJC3, Homo sapiens, UniProt Q13217)	SILAC mass spectrometry	SUP-T1, crude membrane fraction	10 µM, 17 h, reverse labelling	relative to: DMSO over compound	protein level ratio	2.93

SMILES	target	assay	system	setting	scale	endpoint	result
Cc1nnc(NC(=O)c2cc([C@@H]3C[C@H]3NC3CCC3)ccc2Br)s1 (relative stereo)	Lysine-specific histone demethylase 1A (KDM1A, Homo sapiens, UniProt O60341)	LC-MS		first-order adduct fragmentation		styrene formation rate constant	~0.04 h⁻¹
NC(=O)C1CCNC(=O)C(CCCNC(=O)c2cnccn2)NC(=O)C(Cc2ccco2)NC(=O)C(CC=Cc2ccccc2)NC(=O)C=CC(=O)N1 (centres unmarked)	Dual specificity mitogen-activated protein kinase kinase 6 (MAP2K6, Homo sapiens, UniProt P52564)	DNA-templated library selection		one selection round		enrichment factor	1.1
Brc1ccccc1-c1nnc(CSc2nnnn2-c2ccccc2)o1	Corticotropin-releasing factor receptor 1 (CRHR1, Homo sapiens, UniProt P34998)	calcium signal, antagonist		together with: CRF at EC80		IC50	inactive
CCOC(=O)CC[C@@H](NC(=O)[C@@H](NC(=O)c1cn(-c2ccccc2)nc1-c1cccc(C)c1)C(C)C)C(=O)OCC	NOD2	NF-kB reporter gene, agonist	HEK-Blue cells expressing NOD2	10 µM, 16 h		activation	inactive
CCCCCC(=O)Nc1ccc(OC)nc1C	CES2	substrate		50 µM, pH 8, 37 °C, enzyme purity 4%		specific activity	36 pmol/min/µg
CCCCC(C)Sc1nc2c([nH]1)c(=S)n(C)c(=O)n2C (centres unmarked)	Nr3c1	reporter gene, antagonist, MMTV-luciferase	T47D/A1-2	10 µM, 24 h, together with: 5 nM dexamethasone	relative to: maximal activity	remaining activity	105%
C=CCn1c(=O)c2ccccc2n2c(SCC(=O)Nc3ccc(NC(C)=O)cc3)nnc12	Muscarinic acetylcholine receptor M2 (CHRM2, Homo sapiens, UniProt P08172)	allosteric modulator		together with: [3H]NMS		log cooperativity factor	0.73 ± 0.16
Cc1nc(/N=N/c2cc3c(S(=O)(=O)O)cc([N+](=O)[O-])cc3cc2S(=O)(=O)O)c(COP(=O)(O)O)c(C=O)c1O	Coagulation factor XI (F11, Homo sapiens, UniProt P03951)	enzyme activity, inhibitor		pH 7.4, 37 °C, together with: S-2366 substrate		Hill slope	0.9 ± 0.1
O=C([O-])CN(CCN(CC(=O)[O-])Cc1cc(CCC(=O)NCCCCCC(=O)NCCCC[C@H](NC(=O)N[C@@H](CCC(=O)O)C(=O)O)C(=O)O)ccc1O)Cc1cc(CCC(=O)O)ccc1[O-].[68Ga+3]	Glutamate carboxypeptidase 2 (FOLH1, Homo sapiens, UniProt Q04609)	PET/CT	prostate cancer patients, lymph node metastases	60 min post-injection		SUVmax	22.5 ± 19.3
CCCCCCCCCCCCCCCOC(=O)/C=C/c1cc(O)c(O)c(OC)c1	Protein kinase C alpha type (PRKCA, Homo sapiens, UniProt P17252)	membrane translocation, immunoblotting	MDA-MB-231	IC50, 30 min	relative to: untreated	cytosolic PKC alpha	16.6 ± 1.7%
N#CCCN1CCN(C(=S)c2cc(-c3cc(Cl)ccc3Cl)no2)CC1	Atrial natriuretic peptide receptor 2, extracellular domain (NPR2, Homo sapiens, UniProt P20594)	CNP binding, SPR		concentration not given		binding	no effect
O=C(O)c1ccc(/C=C2\SC(=S)N(Cc3cccc(C(F)(F)F)c3)C2=O)cc1	NOD2	inhibitor		1 µM		ATPase activity	no effect
CCCCCCCCCCSc1nc2c([nH]1)c(=S)n(C)c(=S)n2C	Nr3c1	reporter gene, antagonist, MMTV-luciferase	T47D/A1-2	10 µM, 24 h, together with: 5 nM dexamethasone	relative to: maximal activity	remaining activity	85%
CCCCCCCC(=O)Nc1ccc(OC)nc1C	CES2	substrate		50 µM, pH 8, 37 °C, enzyme purity 4%		specific activity	33 pmol/min/µg
CC(=O)OC1(C(C)=O)CCC2C3C=C(CO)C4=CC(=O)CCC4(C)C3CCC21C (centres unmarked)	Progesterone receptor (PGR, Homo sapiens, UniProt P06401)	measured: E2F1	T47D	100 nM, 8 h	relative to: ethanol vehicle	mRNA level	2 ± 0.4 fold change
CCCC[C@H](C)/C=C(C)/C=C/C(=O)O	Transient receptor potential cation channel subfamily A member 1 (TRPA1, Homo sapiens, UniProt O75762)	ion current, inhibitor, whole-cell patch clamp	HEK-293T	5 µM, -100 mV, together with: 100 µM AITC		current density	-25 ± 6.1 pA/pF

Excerpt of the above:
SMILES	target	assay	system	setting	scale	endpoint	result
CC[C@H](C)[C@H](N)C(=O)N[C@@H](CC(N)=O)C(=O)N1CCC[C@H]1C(=O)N[C@H](C(=O)NCC(=O)N[C@@H](CS)C(=O)N[C@@H](C)C(=O)N[C@@H](CCCNC(=N)N)C(=O)N[C@@H](CO)C(=O)N[C@@H](CCC(=O)O)C(=O)N1CCC[C@H]1C(=O)N[C@@H](CCCCN)C(=O)N[C@H](C(=O)N[C@@H](CC(C)C)C(N)=O)[C@@H](C)CC)[C@@H](C)O	WD repeat-containing protein 5 (WDR5, Homo sapiens, UniProt P61964)	binding, BLI				koff	0.0077 s⁻¹
N=C(N)NCCC[C@H](NC(=O)[C@H](CC(=O)O)NC(=O)[C@@H]1CSCCCC(=O)NCC(=O)N[C@@H](Cc2c[nH]cn2)C(=O)N[C@H](Cc2ccccc2)C(=O)N[C@@H](CCCNC(=N)N)C(=O)N[C@H](Cc2c[nH]c3ccccc23)C(=O)N1)C(=O)N[C@@H](Cc1ccccc1)C(=O)NCC(N)=O	Melanocortin receptor 5 (MC5R, Homo sapiens, UniProt P33032)	cAMP accumulation, agonist	HEK293 expressing MC5R	10 µM	relative to: MT-II	activation	65%
